# Measured values gathered from unrelated publications.
# Protocols differ between the studies behind these lines. ± gives the spread as reported.
# Target: Proteinase K (PROK, Engyodontium album, UniProt P06873)
Structure (SMILES),assay,test system,setting,how to read,quantity,result
CC[C@H](C)[C@H](NC(=O)[C@H](Cc1c[nH]cn1)NC(=O)[C@H](CC(N)=O)NC(=O)[C@H](Cc1ccccc1)NC(=O)[C@H](Cc1ccc(O)cc1)NC(=O)[C@H](Cc1ccc(OCc2cn(CCOCCOCCOCCOC)nn2)cc1)NC(=O)[C@@H](NC(=O)[C@H](CCCNC(=N)N)NC(=O)CNC(=O)[C@H](CO)NC(=O)[C@H](CO)NC(=O)[C@H](CCCNC(=N)N)NC(=O)[C@H](CO)NC(=O)[C@H](CCSC)NC(=O)[C@H](CCCNC(=N)N)NC(=O)[C@H](CCCCN)NC(=O)[C@H](CCC(=O)O)NC(=O)[C@H](Cc1c[nH]c2ccccc12)NC(=O)CNC(=O)[C@@H]1CCCN1C(=O)[C@@H]1CCCN1C(=O)[C@H](CC(C)C)NC(=O)[C@@H](N)CCCCN)C(C)C)C(=O)N[C@H](C(=O)N[C@@H](CC(N)=O)C(=O)N[C@@H](C)C(=O)N[C@@H](CO)C(=O)N[C@@H](CCC(N)=O)C(=O)N[C@@H](Cc1ccccc1)C(=O)N[C@@H](CCC(=O)O)C(=O)N[C@@H](CCCNC(=N)N)C(=O)N1CCC[C@H]1C(=O)N[C@@H](CO)C(=O)NCC(=O)O)[C@@H](C)O,"proteolysis, substrate, HPLC",,room temperature,"baseline: PEGylated over non-PEGylated variant, negative = more stable",ln rate constant ratio,-0.3 ± 0.2
O=C(Cc1ccc2ccccc2c1)N[C@@H](Cc1ccccc1)C(=O)N[C@@H](Cc1ccccc1)C(=O)O,,,0.02 wt% hydrogelator,,time to complete degradation,≤ 4 h
CC[C@H](C)[C@H](NC(=O)[C@H](Cc1c[nH]cn1)NC(=O)[C@H](CC(N)=O)NC(=O)[C@H](Cc1ccccc1)NC(=O)[C@H](Cc1ccc(O)cc1)NC(=O)[C@H](Cc1ccc(O)cc1)NC(=O)[C@@H](NC(=O)[C@H](CCCNC(=N)N)NC(=O)CNC(=O)[C@H](CO)NC(=O)[C@H](CO)NC(=O)[C@H](CCCNC(=N)N)NC(=O)[C@H](CO)NC(=O)[C@H](CCSC)NC(=O)[C@H](CCCNC(=N)N)NC(=O)[C@H](CCCCN)NC(=O)[C@H](CCC(=O)O)NC(=O)[C@H](Cc1c[nH]c2ccccc12)NC(=O)CNC(=O)[C@@H]1CCCN1C(=O)[C@@H]1CCCN1C(=O)[C@H](CC(C)C)NC(=O)[C@@H](N)CCCCN)C(C)C)C(=O)N[C@H](C(=O)N[C@@H](CC(N)=O)C(=O)N[C@@H](C)C(=O)N[C@@H](CCn1cc(COCCOCCOCCOC)nn1)C(=O)N[C@@H](CCC(N)=O)C(=O)N[C@@H](Cc1ccccc1)C(=O)N[C@@H](CCC(=O)O)C(=O)N[C@@H](CCCNC(=N)N)C(=O)N1CCC[C@H]1C(=O)N[C@@H](CO)C(=O)NCC(=O)O)[C@@H](C)O,"proteolysis, substrate, HPLC",,room temperature,"baseline: PEGylated over non-PEGylated variant, negative = more stable",ln rate constant ratio,-0.2 ± 0.2
CC(C)C[C@H](NC(=O)[C@H](C)NC(=O)[C@H](CC(N)=O)NC(=O)[C@H](CCC(=O)O)NC(=O)[C@@H](N)CCCCN)C(=O)N[C@@H](CC(C)C)C(=O)N[C@@H](CCCNC(=N)N)C(=O)N[C@@]1(C)CCCC=CCCC[C@@](C)(C(=O)N[C@@H](CC(=O)O)C(N)=O)NC(=O)[C@H](CC(=O)O)NC(=O)[C@H](CC(C)C)NC(=O)[C@H](CC(C)C)NC1=O,"substrate, HPLC",,"0.5 mM, pH 7.4, 37 °C, added: proteinase K 0.0005%",,half-life,2460 min
Cc1ccc(C[C@H](NC(=O)CN)C(=O)N[C@@H](CCCCN)C(=O)N[C@@H](CCCNC(=N)N)C(=O)N[C@H](CC(C)C)C(=O)N[C@H](C(=O)N[C@@H](CCC(N)=O)C(=O)N[C@@H](CCCNC(=N)N)C(=O)N[C@H](CC(C)C)C(=O)N[C@@H](CCCCN)C(=O)N[C@@H](CC(=O)O)C(=O)N[C@@H](Cc2c[nH]c3ccccc23)C(=O)N[C@H](CC(C)C)C(=O)N[C@@H](CCCNC(=N)N)C(=O)N[C@@H](CCCCN)C(=O)N[C@@H](CC(C)C)C(=O)N[C@H](C(N)=O)C(C)C)C(C)C)cc1,"substrate, SDS-PAGE",,"24 h, pH 7.4, 37 °C",,proteolytic stability,stable
CC(=O)N[C@H]1[C@@H](O[C@H](C)[C@H](NC(=O)[C@H](CC(=O)O)NC(=O)[C@@H]2CCCN2C(=O)C[C@H](C)NC(=O)[C@H](CO)NC(=O)[C@@H](NC(=O)[C@@H](NC(=O)CCNC(=O)[C@H](Cc2c[nH]cn2)NC(=O)[C@H](C)NC(=O)[C@@H](N)CS)C(C)C)[C@@H](C)O)C(=O)N[C@@H](CCCNC(=N)N)C(=O)N2CCC[C@H]2C(=O)N[C@@H](C)C(=O)N2CCC[C@H]2CC(=O)NCC(=O)N[C@@H](CO)C(=O)N[C@H](C(=O)N[C@@H](C)CC(=O)N2CCC[C@H]2C(=O)N2CCC[C@H]2C(N)=O)[C@@H](C)O)O[C@H](CO)[C@H](O)[C@@H]1O,UPLC,DPBS,"200 µM, added: proteinase K 5 µg/mL",,half-life,32 min
CC(C)C[C@H](NC(=O)[C@H](CCCCN)NC(=O)[C@H](CCCNC(=N)N)NC(=O)[C@@H](CC(C)C)NC(=O)[C@H](Cc1ccc(C(C)(C)C)cc1)NC(=O)[C@H](CC(=O)O)NC(=O)[C@H](CCCCN)NC(=O)[C@@H](CC(C)C)NC(=O)[C@H](CCCNC(=N)N)NC(=O)[C@H](CCC(N)=O)NC(=O)[C@@H](NC(=O)[C@@H](CC(C)C)NC(=O)[C@H](CCCNC(=N)N)NC(=O)[C@H](CCCCN)NC(=O)[C@H](Cc1ccc(-c2ccccc2)cc1)NC(=O)CN)C(C)C)C(=O)N[C@H](C(N)=O)C(C)C,"substrate, SDS-PAGE",,"24 h, pH 7.4, 37 °C",,proteolytic stability,stable
CC[C@H](C)[C@H](NC(=O)[C@H](CCCNC(=N)N)NC(=O)[C@H](CCC(N)=O)NC(=O)[C@@H](NC(=O)[C@@H](NC(=O)[C@H](CCCNC(=N)N)NC(=O)[C@H](CCCCN)NC(=O)[C@H](Cc1ccccc1)NC(=O)CN)[C@@H](C)CC)C(C)C)C(=O)N[C@@H](CCCCN)C(=O)N[C@@H](CC(=O)O)C(=O)N[C@@H](Cc1ccccc1)C(=O)N[C@@H](CC(C)C)C(=O)N[C@@H](CCCNC(=N)N)C(=O)N[C@@H](CC(N)=O)C(=O)N[C@@H](CC(C)C)C(=O)N[C@H](C(N)=O)C(C)C,"substrate, tricine SDS-PAGE",,"pH 8, 37 °C, added: peptide:protease 40:1",,stability time,< 24 h
Cc1cn(CC(=O)N[C@@H](Cc2ccccc2)C(=O)N[C@@H](CCCNC(=N)N)C(=O)NCC(=O)N[C@@H](CC(=O)O)C(=O)O)c(=O)[nH]c1=O,substrate,,concentration not given,,time to complete hydrolysis,4 h
CC[C@H](C)[C@H](NC(=O)[C@H](Cc1c[nH]cn1)NC(=O)[C@H](CC(N)=O)NC(=O)[C@H](Cc1ccccc1)NC(=O)[C@H](Cc1ccc(O)cc1)NC(=O)[C@H](CCC(=O)NCCOCCOCCOCCOC)NC(=O)[C@@H](NC(=O)[C@H](CCCNC(=N)N)NC(=O)CNC(=O)[C@H](CO)NC(=O)[C@H](CO)NC(=O)[C@H](CCCNC(=N)N)NC(=O)[C@H](CO)NC(=O)[C@H](CCSC)NC(=O)[C@H](CCCNC(=N)N)NC(=O)[C@H](CCCCN)NC(=O)[C@H](CCC(=O)O)NC(=O)[C@H](Cc1c[nH]c2ccccc12)NC(=O)CNC(=O)[C@@H]1CCCN1C(=O)[C@@H]1CCCN1C(=O)[C@H](CC(C)C)NC(=O)[C@@H](N)CCCCN)C(C)C)C(=O)N[C@H](C(=O)N[C@@H](CC(N)=O)C(=O)N[C@@H](C)C(=O)N[C@@H](CO)C(=O)N[C@@H](CCC(N)=O)C(=O)N[C@@H](Cc1ccccc1)C(=O)N[C@@H](CCC(=O)O)C(=O)N[C@@H](CCCNC(=N)N)C(=O)N1CCC[C@H]1C(=O)N[C@@H](CO)C(=O)NCC(=O)O)[C@@H](C)O,"proteolysis, substrate, HPLC",,room temperature,"baseline: PEGylated over non-PEGylated variant, negative = more stable",ln rate constant ratio,0.1 ± 0.3
CC(C)C[C@H](NC(=O)[C@H](CCCCN)NC(=O)[C@H](CCCNC(=N)N)NC(=O)[C@@H](CC(C)C)NC(=O)[C@H](Cc1ccc(C(C)(C)C)cc1)NC(=O)[C@H](CC(=O)O)NC(=O)[C@H](CCCCN)NC(=O)[C@@H](CC(C)C)NC(=O)[C@H](CCCNC(=N)N)NC(=O)[C@H](CCC(N)=O)NC(=O)[C@@H](NC(=O)[C@@H](CC(C)C)NC(=O)[C@H](CCCNC(=N)N)NC(=O)[C@H](CCCCN)NC(=O)[C@H](Cc1ccc(C(C)(C)C)cc1)NC(=O)CN)C(C)C)C(=O)N[C@H](C(N)=O)C(C)C,"substrate, SDS-PAGE",,"24 h, pH 7.4, 37 °C",,proteolytic stability,stable
